Measured values gathered from unrelated publications.
Each line is one published result; not all experiments were run side by side. “And” joins repeats or separate records; there may be more than shown. Numbers after ± are the reported error.
BCHE: Cholinesterase (BCHE, Homo sapiens, UniProt P06276)

O=C1c2c(O)c(=O)ccn2N([C@@H]2c3ccccc3SCc3c2ccc(F)c3F)[C@@H]2COCCN12  plasma concentration (BALB/c mice, plasma; oral, 5 mg/kg baloxavir marboxil, 0.5 h): 45.7 ng/mL
Nc1ncnc2c([C@@H]3N[C@H](CO)[C@@H](O)[C@H]3O)c[nH]c12  cell number (HeLa; 3.1 µM): 5960 and 5100
CN1CCC[C@@H]1Cc1c[nH]c2ccc(CCS(=O)(=O)c3ccccc3)cc12  IC50 (BCHE; inhibitor): 5.25 ± 0.34 µM
COc1cc(C[C@@H](C)N)c(OC)cc1I  IC50 (Plasmodium falciparum; 7G8): 7.94 µM
CCCC[C@H](NC(C)=O)C(=O)N[C@@H](CO)C(=O)N[C@H](C(=O)N1CCC[C@H]1C(=O)N[C@@H](C)C(=O)N[C@@H](CCCNC(=N)N)C(=O)N[C@@H](CCCNC(=N)N)C(=O)N[C@@H](CCCNC(=N)N)C(=O)N[C@@H](CC(C)C)C(=O)N[C@@H](CCCC)C(=O)N[C@@H](CCCNC(=N)N)C(=O)N[C@@H](CC(=O)O)C(=O)N[C@@H](Cc1ccccc1)C(=O)N[C@@H](CCCCN)C(=O)N[C@@H](CCCNC(=N)N)C(=O)N[C@@H](CC(C)C)C(=O)N[C@@H](CCC(N)=O)C(N)=O)[C@@H](C)O  remaining peptide (proteinase K; LC-MS; 25 µM, 102.4 min, pH 7.4): 1.2%
CCCN(CCC)CCc1c[nH]c2ccccc12  IC50 (BCHE; inhibitor): 8.04 ± 0.61 µM
COc1cc2c(Oc3ccc4[nH]c(C)cc4c3F)ccnc2cc1OCC1(N)CC1  grade 3 Myalgia (paediatric recurrent refractory sarcoma; 8 mg): 0%
Cc1cc2nc3c(=O)[nH]c(=O)nc-3n(C[C@H](O)[C@H](O)[C@H](O)COP(=O)(O)O)c2cc1C  midpoint potential (nfsB (Escherichia coli K-12, UniProt P38489, K14E); bound cofactor redox, redox titration; pH 7.0, 25 °C, anaerobic): -196 ± 1 mV
C=C1C[C@@H]2[C@H](CC[C@]3(C)C(=O)CC[C@@H]23)[C@@]2(C)C=CC(=O)C=C12  glutathione conjugation (GSTA1 (Homo sapiens, UniProt P08263); substrate, recombinant enzyme; 250 µM, 1 h, 37 °C, enzyme 2.5 ng/µL, active if above 3-fold of mock, with: glutathione 5 mM): active
COc1cccc(-c2n[nH]c(SCc3ccccn3)n2)c1OC  revertant colonies per plate (Salmonella typhimurium; Ames test, preincubation; TA1537; 0.13 mg/plate, with rat liver S9): 14
NC12CC3CC(CC(C3)C1)C2  IC50 (Plasmodium falciparum; GB4): 10 µM
CC(C)C[C@H](NC(=O)[C@H](C)NC(=O)[C@@H](NC(=O)[C@H](CCCNC(=N)N)NC(=O)[C@H](CC(C)C)NC(=O)[C@H](Cc1c[nH]c2ccccc12)NC(=O)[C@@H]1CCCN1C(=O)[C@@H](N)CCCCN)C(C)C)C(=O)N[C@@H](CS)C(=O)N1CCC[C@H]1C(=O)NCC(=O)O  viability (H9c2; WST-1; 16 µM, 24 h): 92.8% and 101% and 114%
[Cl-].[Cl-].[Pt+2].[Ru+2].c1ccc(-c2nc3cc4ccccc4cc3nc2-c2ccccn2)nc1.c1cnc2c(c1)ccc1cccnc12.c1cnc2c(c1)ccc1cccnc12  hatching rate (Danio rerio; embryos; 60 µM, 72 h): 20 ± 3.7%
OCc1ncc2n1-c1ccc(Cl)cc1C(c1ccccc1F)=NC2  Cmax (CYP3A4; substrate; human, plasma; oral, 2 mg midazolam, day 1, cocktail with binimetinib and encorafenib): 50.5 ng/mL
CC(=O)N1CCC(C(=O)N2CCN3C(=O)c4cc(-c5ccccc5)ccc4NC(=O)C3C2)CC1 (stereo not shown)  revertants per plate (Escherichia coli; WP2 uvrA; 1581 µg/plate, with: rat liver S9): 31
O=C(O)c1cn(Cc2ccc(F)cc2)c2ccccc12  Km (UGT1A10 (Homo sapiens, UniProt Q9HAW8); glucuronidation, substrate): 38.5 ± 7.5 µM
O=S(=O)(c1ccc(O)cc1)c1ccc(O)cc1  necrotic cells (HepG2 spheroids; annexin V-FITC/PI flow cytometry; 0.10 µM, 96 h): 43.1 ± 4.3%
CC1(C)[C@H](C=C(Cl)Cl)[C@H]1C(=O)OCc1cccc(Oc2ccccc2)c1  enzyme contribution to CLint (human cytosolic CES1; IVIVE from expressed enzymes; human, liver, in vivo scaled; 0.1 µM, age-specific): 33%
O=c1ccc2ccccc2o1  point of departure (HepG2; measured: cell count; 24 h, phospholipidosis and steatosis panel): 554 µM
CO[C@H]1C[C@@H]2CC[C@@H](C)[C@@](O)(O2)C(=O)C(=O)N2CCCC[C@H]2C(=O)O[C@H]([C@H](C)C[C@@H]2CC[C@@H](OC(=O)NCCOCCOCCOCCOCCOCCOCCOCCOCCC(=O)N3CCc4cc(Cn5nc(-c6ccc7oc(N)nc7c6)c6c(N)ncnc65)ccc4C3)[C@H](OC)C2)C[C@@H](O)[C@H](C)/C=C(\C)[C@@H](O)[C@@H](OC)C(=O)[C@H](C)C[C@H](C)/C=C/C=C/C=C/1C  headache incidence (patients with advanced solid tumours; intravenous, 8 mg weekly, any grade): 25%
Cc1cc(C(C)(C)c2ccc(O)c(C)c2)ccc1O  necrotic cells (HepG2 spheroids; annexin V-FITC/PI flow cytometry; 1 µM, 96 h): 46.7 ± 9.48%
Cc1cc(C(=O)NC(C)(C)COc2cccc3c2C(N)=NS(=O)(=O)N3)cc(C)n1  revertant ratio (Salmonella typhimurium; Ames test, initial; TA100; 500 µg/plate, with: rat liver S9; relative to: solvent control): 1.1

For quick reference, copied from above:
Cc1cc(C(C)(C)c2ccc(O)c(C)c2)ccc1O  necrotic cells (HepG2 spheroids; annexin V-FITC/PI flow cytometry; 1 µM, 96 h): 46.7 ± 9.48%
